{"data": "Measurements pooled from the literature", "note": "Every numbered part comes from another study and shows a few of its results, in no order."}
{"data": "Study 1", "cell line": "HEK-293T", "organism": "VSV pseudotyped with SARS-CoV-2 spike", "concentration": "10 µM", "time": "16 h"}
{"SMILES": "CN1[C@@H]2CC[C@H]1C[C@@H](OC(c1ccccc1)c1ccccc1)C2", "pseudovirus infection": "29.4%"}
{"SMILES": "CCCCc1oc2ccccc2c1C(=O)c1cc(I)c(OCCN(CC)CC)c(I)c1", "pseudovirus infection": "52%"}
{"SMILES": "NNc1nncc2ccccc12", "pseudovirus infection": "68%"}
{"SMILES": "CCOC(=O)N1CCC(=C2c3ccc(Cl)cc3CCc3cccnc32)CC1", "pseudovirus infection": "66.7%"}
{"SMILES": "Cc1cc2c(s1)Nc1ccccc1N=C2N1CCN(C)CC1", "pseudovirus infection": "41.8%"}
{"data": "Study 2", "target": "Centromere-binding protein 1, full length, His-tagged (CBF1, Saccharomyces cerevisiae, UniProt P17106, residues 1-351)", "technique": "competition protein-binding microarray", "form": "double-stranded DNA, one strand shown", "sample": "in vitro", "concentration": "2 µM", "notes": "whole 60-bp probe, lowest competitor level", "added": "Pho4 competitor, 0.05 µM", "direction": "higher = stronger binding", "sequence of UniProt P17106 (whole entry, looked up)": "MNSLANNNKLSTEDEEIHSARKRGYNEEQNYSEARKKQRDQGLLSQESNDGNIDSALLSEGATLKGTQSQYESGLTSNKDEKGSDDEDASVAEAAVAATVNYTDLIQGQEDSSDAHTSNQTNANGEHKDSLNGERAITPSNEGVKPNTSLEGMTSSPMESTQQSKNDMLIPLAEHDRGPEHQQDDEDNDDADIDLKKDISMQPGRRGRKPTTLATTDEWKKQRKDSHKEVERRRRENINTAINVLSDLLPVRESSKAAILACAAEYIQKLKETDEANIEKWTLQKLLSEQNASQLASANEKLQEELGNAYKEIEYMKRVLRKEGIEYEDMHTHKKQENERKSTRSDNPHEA"}
{"Sequence": "AAATTACTAAGTTGACACGTGTTTTACCCCGTATGAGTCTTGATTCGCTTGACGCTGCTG", "fluorescence intensity [a.u.]": 1680}
{"Sequence": "TCTGGGAGAGCCTGTCAGATGACGAATCAGAAGACAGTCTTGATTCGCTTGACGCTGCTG", "fluorescence intensity [a.u.]": 136}
{"Sequence": "TTGGTGTTTCTGCCTTACGTGGTGAGTTTAAGGACCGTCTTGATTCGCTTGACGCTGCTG", "fluorescence intensity [a.u.]": 79.7}
{"Sequence": "ACACAGAGCGGCTGAAGCGTGATGGATGCCCAGGTAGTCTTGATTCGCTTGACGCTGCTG", "fluorescence intensity [a.u.]": 87.8}
{"Sequence": "TGATGTGGTTTCTACAGCTGGGTATTCACAATAAAAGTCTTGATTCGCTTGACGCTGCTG", "fluorescence intensity [a.u.]": 68.4}
{"Sequence": "AGCGATTGTAGCCAAATCGTGGGTACTGACTCTTGTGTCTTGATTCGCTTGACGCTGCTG", "fluorescence intensity [a.u.]": 67.7}
{"Sequence": "CTTTCCCGATCTTGATTTGTGGGTGTAGCACATTTGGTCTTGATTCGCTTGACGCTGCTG", "fluorescence intensity [a.u.]": 91}
{"Sequence": "CGGAGAACAAAAGTAGGCGTGGGTAGTGAAGATCTTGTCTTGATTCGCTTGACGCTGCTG", "fluorescence intensity [a.u.]": 59.8}
{"data": "Study 3", "target": "Interferon regulatory factor 7, full length, phosphomimetic (IRF7, Homo sapiens, UniProt Q92985, residues 1-503, S101K/S471D/S472D/S475D/S476D/S477D/S483D/S484D/S487D)", "technique": "protein-binding microarray", "form": "double-stranded DNA, one strand shown", "sample": "in vitro", "concentration": "250 nM", "notes": "60-bp whole probe", "added": "salmon DNA 0.4 mg/ml", "relative to": "random background probes", "direction": "higher = stronger binding", "all sequences stand within": "GCCTAGCAC … GTCTTGATTCGCTTGACGCTGCTG", "Residues (chain)": "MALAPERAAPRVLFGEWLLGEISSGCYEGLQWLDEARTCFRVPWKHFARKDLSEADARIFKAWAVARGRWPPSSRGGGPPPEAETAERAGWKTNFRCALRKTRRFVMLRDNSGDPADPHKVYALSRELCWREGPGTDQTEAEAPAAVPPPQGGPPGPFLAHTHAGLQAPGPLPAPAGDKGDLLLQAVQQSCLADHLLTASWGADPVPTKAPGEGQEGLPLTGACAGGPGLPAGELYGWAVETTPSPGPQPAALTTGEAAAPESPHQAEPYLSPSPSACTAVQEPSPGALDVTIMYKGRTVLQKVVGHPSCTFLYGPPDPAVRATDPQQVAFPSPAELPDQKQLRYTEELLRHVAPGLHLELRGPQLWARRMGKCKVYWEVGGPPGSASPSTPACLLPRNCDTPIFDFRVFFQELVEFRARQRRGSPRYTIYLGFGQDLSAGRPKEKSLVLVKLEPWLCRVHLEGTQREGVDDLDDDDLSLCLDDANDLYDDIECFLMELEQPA"}
{"Sequence": "GACGGATTCCTACTGCTGACGTGCTAG", "log fluorescence": "0.0392 z-score"}
{"Sequence": "TTAGGTATCGGAGTGGGTTAGTGCTAG", "log fluorescence": "-0.432 z-score"}
{"Sequence": "AGAGAGAGAGAGAGAGAGAGGTGCTAG", "log fluorescence": "0.132 z-score"}
{"Sequence": "TCATCATTTTCTTTAACACTGTGCTAG", "log fluorescence": "0.93 z-score"}
{"Sequence": "GACGGTTTCGGGACTGGGGTCGTGCTA", "log fluorescence": "3.72 z-score"}
{"Sequence": "TCAAGGTCCCTTTTCATACTGTGCTAG", "log fluorescence": "1.58 z-score"}
{"Sequence": "TCATTTTTCATTTTGTTACTGTGCTAG", "log fluorescence": "3.23 z-score"}
{"Sequence": "TCTAGCCTCCATTTTTACCCGTGCTAG", "log fluorescence": "-0.4 z-score"}
{"data": "Study 4", "target": "Replicase polyprotein 1ab, main protease (rep, Severe acute respiratory syndrome coronavirus 2, UniProt P0DTD1)", "effect on": "enzyme activity", "action": "inhibitor", "concentration": "20 µM", "notes": "hit confirmation"}
{"Compound": "CC(C)=CCC/C(C)=C/CC/C(C)=C/CC/C(C)=C/CC1=C(C)C(=O)c2ccccc2C1=O", "inhibition [%]": 22.7}
{"Compound": "O=C(O)C1=CC(=C(c2ccc(O)c(C(=O)O)c2)c2ccc(O)c(C(=O)O)c2)C=CC1=O", "inhibition [%]": 95.6}
{"Compound": "O=C(CCl)c1ccccc1", "inhibition [%]": 110}
{"Compound": "S=c1[nH]nc(-c2ccccc2)o1", "inhibition [%]": 13}
{"data": "Study 5", "target": "Replicase polyprotein 1ab, polymerase (rep, Severe acute respiratory syndrome coronavirus 2, UniProt P0DTD1)", "effect on": "enzyme activity", "action": "inhibitor", "concentration": "20 µM"}
{"SMILES": "O=C(Oc1ccc([N+](=O)[O-])cc1)N1CCN(Cc2cccc(Oc3ccccc3)c2)CC1", "inhibition [%]": 10.6}
{"SMILES": "Clc1ccc(N2CCN(Cc3c[nH]c4ncccc34)CC2)cc1", "inhibition [%]": -2.18}
{"SMILES": "C/C(=N\\NC(=S)N1CCC1)c1ccccn1", "inhibition [%]": -2.38}
{"SMILES": "CCOc1cc2ncc(C#N)c(Nc3ccc(F)c(Cl)c3)c2cc1NC(=O)/C=C/CN(C)C", "inhibition [%]": 0.05}
{"SMILES": "CCC(CC)[C@H](NC(C)=O)[C@@H]1[C@H](O)[C@@H](C(=O)O)C[C@H]1NC(=N)N", "inhibition [%]": -1.7}
{"SMILES": "CCCCCCCCCCCCCCCc1cccc(OCC(=O)NCCO)c1", "inhibition [%]": -3.69}
{"SMILES": "N=C1NC(=O)N2CC12 (centres unmarked)", "inhibition [%]": 6.05}
{"SMILES": "COc1ccc2c(C)nc(Nc3nc(C)c(C)c(=O)[nH]3)nc2c1", "inhibition [%]": -2.78}
{"SMILES": "Nc1nc2c(nc(Br)n2[C@@H]2O[C@@H]3COP(=O)(O)O[C@H]3[C@H]2O)c(=O)[nH]1", "inhibition [%]": 0.85}
{"SMILES": "Nc1ncc(Cc2ccc(Br)cc2)s1", "inhibition [%]": -3.66}
{"SMILES": "Cc1cc(C)c2c(N)c(C(=O)NCc3ccc(Cl)cc3)sc2n1", "inhibition [%]": 1}
{"SMILES": "CN(C)C[C@H](O)Cn1c2ccc(Br)cc2c2cc(Br)ccc21 (racemic)", "inhibition [%]": 3.09}
{"SMILES": "CN1c2c(oc(=O)n(-c3ccccn3)c2=O)-c2ccccc2S1(=O)=O", "inhibition [%]": 1.66}
{"SMILES": "CCOC(=O)[N-]c1c[n+](N2CCOCC2)no1", "inhibition [%]": 16.1}
{"SMILES": "C[N@+]12CCCC[C@@H]1CCC(=C(c1cccs1)c1cccs1)C2 (racemic)", "inhibition [%]": -2.71}
{"SMILES": "CCC1=C[C@@H]2CN(C1)Cc1c([nH]c3ccccc13)[C@@](C(=O)OC)(c1cc3c(cc1OC)N(C)[C@H]1[C@@](O)(C(=O)OC)[C@H](OC(C)=O)[C@]4(CC)C=CCN5CC[C@]31[C@@H]54)C2", "inhibition [%]": 1.35}
{"SMILES": "Cn1cc(C(=O)C(=O)NC2CN3CCC2CC3)c2ccccc21 (centres unmarked)", "inhibition [%]": 7.47}
{"SMILES": "CN(C(=O)Cc1ccc(Cl)c(Cl)c1)[C@H](CN1CCCC1)c1ccccc1", "inhibition [%]": -1.01}
{"SMILES": "CCOC(=O)[C@@](C)(N)Cc1ccc(O)c(O)c1", "inhibition [%]": 1.05}
{"SMILES": "O=C1NC(=O)/C(=C/c2ccc3c(c2)OC(F)(F)O3)S1", "inhibition [%]": -2.32}
{"SMILES": "C#Cc1cccc(Nc2ncnc3cc4c(cc23)OCCOCCOCCO4)c1", "inhibition [%]": 3.51}
{"SMILES": "C=C(C)CN1CC[C@]23c4c5ccc(O)c4O[C@H]2c2[nH]c4ccccc4c2C[C@@]3(O)C1C5", "inhibition [%]": -4.67}
{"SMILES": "O=C(NNc1nc2cc(F)ccc2n2cccc12)c1cnccn1", "inhibition [%]": -1.19}
{"SMILES": "Clc1ccc(N/N=C(\\c2ccccc2)c2ccccn2)nc1", "inhibition [%]": 3.01}
{"SMILES": "C[C@@H]1CCO[C@H]2Cn3cc(C(=O)NCc4ccc(F)cc4F)c(=O)c(O)c3C(=O)N12", "inhibition [%]": -3.32}
{"note": "Excerpt of the above (study 5):"}
{"SMILES": "O=C1NC(=O)/C(=C/c2ccc3c(c2)OC(F)(F)O3)S1", "inhibition [%]": -2.32}
{"SMILES": "C#Cc1cccc(Nc2ncnc3cc4c(cc23)OCCOCCOCCO4)c1", "inhibition [%]": 3.51}
{"SMILES": "C=C(C)CN1CC[C@]23c4c5ccc(O)c4O[C@H]2c2[nH]c4ccccc4c2C[C@@]3(O)C1C5", "inhibition [%]": -4.67}
{"SMILES": "O=C(NNc1nc2cc(F)ccc2n2cccc12)c1cnccn1", "inhibition [%]": -1.19}
{"SMILES": "Clc1ccc(N/N=C(\\c2ccccc2)c2ccccn2)nc1", "inhibition [%]": 3.01}
{"SMILES": "C[C@@H]1CCO[C@H]2Cn3cc(C(=O)NCc4ccc(F)cc4F)c(=O)c(O)c3C(=O)N12", "inhibition [%]": -3.32}
